Measurements of several laboratories.
Compare with care: the assays were run in different laboratories. Values joined by “and” are separate records of one study, mostly repeats; a detail may differ. ± gives the spread as reported.

Substance | test | test system | conditions | half-life
C=C(C)C(=O)Nc1ccc(-c2c(-c3ccc(Oc4nccc(C)n4)cc3)c3c(N)ncnc3n2C)cc1 | – | Sprague-Dawley rat | intravenous, dose not given | 0.37 h
COc1cc(C=CC(=O)OCC2OC(OC3C(c4c(OC)cc5oc(-c6ccc(O)cc6)cc(=O)c5c4O)OC(CO)C(O)C3O)C(O)C(O)C2O)ccc1O (stereo not shown) | – | male Sprague-Dawley rat, normal, plasma | oral, 6.8 g/kg | 1.87 ± 1.1 h
COc1cccc(-c2n[nH]c(SCc3ccccn3)n2)c1O | – | Sprague-Dawley rat, male and female, plasma | oral, 100 mg/kg of parent drug | 3.67 h
COc1cc2oc(-c3ccc(O)cc3)cc(=O)c2c(O)c1[C@@H]1O[C@H](CO)[C@@H](O)[C@H](O)[C@H]1O[C@@H]1O[C@H](CO)[C@@H](O)[C@H](O)[C@H]1O | – | male Sprague-Dawley rat, PCPA-induced insomnia, plasma | oral, 6.8 g/kg | 2.75 ± 0.92 h
CN(C)C(=O)c1ccnc(N2Cc3cn(Cc4ccc(F)cc4F)nc3C2)n1 | – | Sprague Dawley rat, brain | dose not given | 4.2 h and 2.6 h
CCC(CC)[C@H](NC(C)=O)[C@@H]1[C@H](O)[C@@H](C(=O)N[C@H](C(=O)O)[C@@H](C)CC)C[C@H]1NC(=N)N | – | male Sprague-Dawley rats, rat gastric fluid | 100 µg/mL, pH 1.3, 37 °C | 27.6 ± 0.6 h
Cn1cc(C(N)=O)c(NC2C3CC4CC2CC(O)(C4)C3)c2ccnc1-2 (stereo not shown) | – | Japanese adults, moderate hepatic impairment, plasma | oral, 150 mg single dose | 15.1 h
Cc1noc(C)c1Cn1cc(N2C(=O)CN(Cc3cccc(OS(=O)(=O)O)c3)C2=O)cn1 | – | rat Sprague-Dawley male, plasma | oral, 100 mg/kg of parent drug | 4.7 h
N[C@H](COc1ccccc1C(F)(F)F)c1ccccc1 | – | male Sprague-Dawley rat | oral, 25 mg/kg | 6.5 h
Ac-CSNLSTCXLGKLSQDLHRLQTYPKTDVGANAP-NH2 (N-acetyl, C-amide) | ELISA | peptide, high-fat diet Sprague Dawley rats, plasma | subcutaneous, 4 nmol/kg | 23.4 ± 2 h
CCC(CC)[C@H](NC(C)=O)[C@@H]1[C@H](O)[C@@H](C(=O)OCCOC(=O)[C@@H](N)C(C)C)C[C@H]1NC(=N)N | – | male Sprague-Dawley rats, rat intestinal fluid | 80 µg/mL, pH 6.6, 37 °C | 2.68 ± 0.2 h
CN[C@@H]1[C@H](O)[C@H](NC)[C@H]2O[C@]3(O)[C@H](O[C@@H]2[C@H]1O)O[C@H](C)C[C@@]3(O)CNCc1ccc(OC(F)(F)F)cc1 | – | rat | iv, 10 mg/kg | 1.99 h
Cc1ccc(OCC(=O)O)cc1 | – | Sprague-Dawley rat, both sexes, plasma | oral, all doses and days, metabolite of dosed drug | 1.43 to 4.41 h
CC(C)C[C@@H]1NC(=O)[C@H](C(C)C)NC(=O)[C@H](CC(N)=O)NC(=O)[C@H](CO)NC(=O)[C@H](CO)NC(=O)[C@H](CC(=O)O)NC(=O)[C@H](CC(=O)O)NC(=O)[C@H](Cc2ccccc2)NC(=O)[C@H](Cc2ccc(O)cc2)NC(=O)[C@@H](N)CSSC[C@@H](C(=O)N[C@@H](CCCCN)C(=O)N[C@@H](CCCCN)C(=O)N[C@@H](Cc2ccc(O)cc2)C(=O)N[C@@H](CCCNC(=N)N)C(=O)N[C@@H](CO)C(=O)O)NC1=O | – | Sprague-Dawley rat, male, whole blood | 0.1 mg/mL, 37 °C, in vitro stability | 1.17 h
Cc1noc(C)c1Cn1cc(N2C(=O)CN(Cc3cccc(O[C@@H]4O[C@H](C(=O)O)[C@@H](O)[C@H](O)[C@H]4O)c3)C2=O)cn1 | – | rat Sprague-Dawley male, plasma | oral, 30 mg/kg of parent drug | 1.7 h
CN1CCN(c2ccc(Nc3ncc(Cl)c(Nc4ccccc4P(C)(C)=O)n3)cc2Br)CC1 | – | Sprague-Dawley rat, male, plasma | oral, 25 mg/kg | 26.6 h and 12.1 h and 7.1 h
COC(=O)C(Cc1c[nH]cn1)NC(=O)C1(C)C(O)CCC2(C)C1CCC1(C)C2CC=C2C3C(C)C(C)CCC3(C)CCC21C (stereo not shown) | – | Wistar rat, colon homogenate | 90 µg/mL, 12 h, 37 °C | 8.57 h
Cc1ccc(O)c2c3c(nn12)CCC(C)(NC(=O)c1ccc(-n2cnc4cc(C(=O)O)ccc42)cc1Cl)C3 (stereo not shown) | – | rat | – | 0.38 h
COC(=O)/C=C/C(=O)c1ccc(OC)cc1 | – | Sprague-Dawley rat, both sexes, plasma | oral, 200 mg/kg | 7.21 ± 0.57 h
CCCCC/C=C/C=C/C(=O)NCC(C)C | – | rat, sham-operated, plasma | oral, 50 mg/kg | 2.13 ± 0.63 h
CN[C@@H]1[C@H](O)[C@H](NC)[C@H]2O[C@]3(O)[C@H](O[C@@H]2[C@H]1O)O[C@H](C)C[C@@]3(O)CNCc1ccc(F)cc1 | – | rat | intravenous, 10 mg/kg | 1.12 h
Cn1cc(C(N)=O)c(NC2C3CC4CC2CC(OS(=O)(=O)O)(C4)C3)c2ccnc1-2 (stereo not shown) | – | Japanese adults, moderate hepatic impairment, plasma | oral, 150 mg single dose | 14.1 h

For quick reference, copied from above:
Substance | test | test system | conditions | half-life
COc1cc(C=CC(=O)OCC2OC(OC3C(c4c(OC)cc5oc(-c6ccc(O)cc6)cc(=O)c5c4O)OC(CO)C(O)C3O)C(O)C(O)C2O)ccc1O (stereo not shown) | – | male Sprague-Dawley rat, normal, plasma | oral, 6.8 g/kg | 1.87 ± 1.1 h
COc1cccc(-c2n[nH]c(SCc3ccccn3)n2)c1O | – | Sprague-Dawley rat, male and female, plasma | oral, 100 mg/kg of parent drug | 3.67 h
COc1cc2oc(-c3ccc(O)cc3)cc(=O)c2c(O)c1[C@@H]1O[C@H](CO)[C@@H](O)[C@H](O)[C@H]1O[C@@H]1O[C@H](CO)[C@@H](O)[C@H](O)[C@H]1O | – | male Sprague-Dawley rat, PCPA-induced insomnia, plasma | oral, 6.8 g/kg | 2.75 ± 0.92 h
